# Results of several laboratories.
# Numbered parts are unrelated; each lists some results of a single study.

# Sample 1
# Target: RNA binding protein fox-1 homolog 2, RRM domain, GST-SBP tag (RBFOX2, Homo sapiens, UniProt O43251-10, residues 100-194)
# Method: RNA Bind-n-Seq
# Molecule type: RNA
# Sample: in vitro
# Concentration: 365 nM
# Notes: natural RNA segment, single round, ends assumed
# Reference: no-protein control
# Direction: higher = stronger binding
# Constant ends, left off below: GGGAGUUCUACAGUCCGACGAUC … UGGAAUUCUCGGGUGCCAA
# Target sequence (chain): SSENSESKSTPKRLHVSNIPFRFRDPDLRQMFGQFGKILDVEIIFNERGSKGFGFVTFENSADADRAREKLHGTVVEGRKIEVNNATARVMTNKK
Oligonucleotide,RBNS enrichment (R)
UUAAAACAGCUUUGCUUGUAUUGUGAAGAUUUAAAAACAAACUUGAGAUUUUUAACGUAACUAUUAACACAGUUUUAACAUAAGUUAUCCCACUGGGUUUAAGAGCAUCU,0.716
AGCUGUAUUCGUACUCAAUUGUCAGUAUGGCACAGAUUACUGUAUUAAAAUAUUCUCCUUUCGUCUUCAUAUUUACCUUCUGAGGUAAUUUUUUAACUUAAUGUGUUACU,0.758
CCAAUGGUGUGAGGUCUGGAAUGUAAGCCCCCAUCCACACAUGGACCACGCAAAGUGCUGGACACAUCAGUCAUCUCCAACUGGCUGAAAGGCUGAACCUCAGGGCUCCA,0.311
GACUAAUGAGGCAUUACAAAUAAUAUUACUCUAUGAUGAUUGCUUCCACCCACACGACUGCAACAUACAGGUGCCUUGGGGAAAUGUGGAGAACAUUCAAUCUUGCCGUC,0.49
AGCAAUAGUUUGGGCAGUUUUAGUUGUUUUUAGUGAGCAUGUUGUAGUCAUGACUGCAAAGAGAGAGAAUAAACUGCCCGCUCAGAAGAUAUGUAAUUUGUAUUGUUGUA,2.94
UCUGUCCUCUUUAUGGAAUGUAGUCGACGGAUAUUGCUGCACCUCAUCAGGCCAUUACAUUGUCCAUGUUAAAAUUAUAAAAAUGAUCCUAGUUUUUCAUAGGAGUCUAG,0.565
UAAAAAUUCUAAUUCCUCAGGUUUGGCCUUUUAAGUUAUGGCUGAAGACCUUUAAUGAUACUUAUGAUGCACUCAGUGCCAUACAAUAGUGUUUUAAGAAGCACAUGGCC,0.508
UCAGGCAGGAUUCCUGUGGACUUUGAGAUUCAUGUUACCUCAUCUUCUUUUUUAAACUGUACCCAACUUGUGAGGGUACUCUGUCUAAUGUAUAUUUCUAGUGUUUACAG,0.504
CAGGGACCUGUUUCCCAAGAAGAGAGCCUGAUAUUCAAAGGGUGGGACAGCAUCUGCCCGACUUCCCGUAAAGGCAUAAAGGCACGCAGCCCAAAAGACGGGAAGAGGAG,2.38
GAGAAUAAAGAGCAGUCGCAAUGAAGCUGCCCACCCUCGGCACUCUGCAGCUUUAGUUACUGAUCUAGAAGCCCUGUAGUGUGAAGCGGCCGCUGCAGGCCAUUGUACAC,0.332
ACUGUAGAGAAUCUUCUGUUUAGUCCGUGCUUUUUAUGUAGAAUUGGUUUUAUCUAAUAGUUUUACUAUGGAAAUCGCCUUUUGAUAUUAAAGCCAGAUUUUAGAGGUUU,0.236
UGUUUUGUCUUCCCCUUUCUGCACUUAAAUACCUGACAGCCUGUUCGAUCGCUGUGCCUCCGAGGGCGCUUCUAGCUCAUCGUAGAUUUGUGAUGUCAUAGUGCAAACUG,0.49

# Sample 2
# Organism: Saccharomyces cerevisiae
# Effect on: cell growth
# Method: competitive growth deep sequencing
# Molecule type: peptide
# Notes: peptide tiling library
# With: cyclin E2-Cln2 fusion
# Direction: direction not given
Sequence,enrichment score
PAKRRLELGE,1.21
DTERAHSTLDEDLERW,1.25
VLVRTSACRSLFGPVD,-0.178
SSEVARHLLFQSHM,-0.863
KPHVSDEEEEEPPFYH,1.21
IVLICAKRSLCAAFSV,-0.793
FQDSGYNELKSCSFDN,0.528
PKRAKRKLYTSEISSP,0.315
TARRIFQEPTEPKTKA,0.0884
SMTDFYHSKRRLIFSK,-1.05
GLPDFVFQQQPVESEA,0.928
DGCSPIKNWSPMRL,0.508
KPKPVKPVTFSTGIKM,1.99
SAVPLILPQAPSGPSY,2.49
PARRRLRLSVDEVSSP,-0.394

# Sample 3
# Target: Histone acetyltransferase KAT6A, winged helix 2, GST fusion (KAT6A, Homo sapiens, UniProt Q92794, residues 85-181)
# Method: protein binding microarray
# Molecule type: double-stranded DNA, one strand shown
# Sample: in vitro
# Concentration: not given
# Notes: 8-mer, flanks averaged, mean of 2 arrays, mostly near background
# Reference: not given
# Direction: higher = stronger binding
# Construct (chain): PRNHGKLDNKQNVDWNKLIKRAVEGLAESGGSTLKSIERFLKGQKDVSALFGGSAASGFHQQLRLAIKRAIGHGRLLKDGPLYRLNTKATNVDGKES
Oligonucleotide,E-score
GACTTTGA,-0.0411
CCTTAGGC,-0.207
CTATTCGA,-0.0559
CGTTCACC,-0.072
AGAATAAA,-0.0733
GCGACGCA,0.206
CGAGTTGC,0.121
GGTCATAC,-0.0861
CCACAGGA,0.104
ACATCAAC,0.138
GACGAATA,0.0929
GGGAGTTA,-0.102
GAAGCTGC,-0.00326
AATGTACC,-0.0882
AGGAGCTG,-0.0217
TATTGGCA,0.0267
GAAACGTA,-0.227
CCGGGACG,0.0554
CTAAGAAG,0.0991
TGGTCCAA,-0.128
GAGCTAAC,-0.0672
CGTGTCGA,-0.0486
AAGAGTCG,-0.0329
AATCTGCA,-0.0507
AATCGGGG,-0.159

# Sample 4
# Target: Interferon regulatory factor 7, full length, phosphomimetic (IRF7, Homo sapiens, UniProt Q92985, residues 1-503, S101K/S471D/S472D/S475D/S476D/S477D/S483D/S484D/S487D)
# Method: protein-binding microarray
# Molecule type: double-stranded DNA, one strand shown
# Sample: in vitro
# Concentration: 250 nM
# Notes: 60-bp whole probe
# With: salmon DNA 0.4 mg/ml
# Reference: random background probes
# Direction: higher = stronger binding
# Constant ends, left off below: GCCTAGCAC … GTCTTGATTCGCTTGACGCTGCTG
# Target sequence (chain): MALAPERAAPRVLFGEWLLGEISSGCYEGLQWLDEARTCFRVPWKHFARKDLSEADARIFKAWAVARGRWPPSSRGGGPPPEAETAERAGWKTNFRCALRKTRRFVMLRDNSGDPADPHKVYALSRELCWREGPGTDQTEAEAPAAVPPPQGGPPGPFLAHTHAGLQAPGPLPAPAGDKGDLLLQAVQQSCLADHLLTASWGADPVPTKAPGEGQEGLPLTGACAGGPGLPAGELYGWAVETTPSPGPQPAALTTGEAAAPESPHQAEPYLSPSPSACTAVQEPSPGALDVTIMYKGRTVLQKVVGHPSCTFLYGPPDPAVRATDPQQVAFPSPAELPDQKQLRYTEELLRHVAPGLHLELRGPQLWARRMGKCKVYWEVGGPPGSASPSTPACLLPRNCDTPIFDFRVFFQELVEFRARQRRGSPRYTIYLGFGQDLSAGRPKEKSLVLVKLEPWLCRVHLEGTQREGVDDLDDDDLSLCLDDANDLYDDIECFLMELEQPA
Oligonucleotide,log fluorescence [z-score]
GACGACTTCGGGACTGGAGACGTGCTA,-0.717
GCTGACACTAACACAGTGGTGTGCTAG,-0.913
TTAGATTCCAGTTTCGCTTAGTGCTAG,8.31
ATCATTTTCGTTTTTATTATGTGCTAG,7.72
TCAGGACTGGGACTGGGTTAGTGCTAG,-0.186
TTTGTAATCGAAATCTTCATGTGCTAG,0.294
GACGGACTGGGGTATTGGGACGTGCTA,-0.876
TTAGGTTTCCTCTTCCTTTAGTGCTAG,2.38
GTTCAAAGTCCTACGGCTTCGTGCTAG,0.0154
TCATGTCCCTATTTAAGACTGTGCTAG,3.02
GACGATCTCAGACTGGAGGCGTGCTAG,-0.322
GGCGATTCCAGTTTCGAGACGTGCTAG,3.87
TTTGGACTGCTTTTCCTTTAGTGCTAG,0.714
GACCATATCGGGTTTCGAGACGTGCTA,2.83
TGCCTTTTTTTTTTTTTCTGGTGCTAG,1.05
GACGGTTTCGTTATCGGGACGTGCTAG,11.4
TTAGATCTCGGTCTCGGTTAGTGCTAG,1.6
TTAGATTTCGGGGTTCGATTAGTGCTA,0.982
GACGGTGTCGGTATCGGGACGTGCTAG,-0.287
GACCATCTCAGTATCGAGACGTGCTAG,0.484
TTAGGTTTCGGTCTCGGTGAGTGCTAG,7.26
GACGGACTGGGTCTCGGGCCGTGCTAG,-0.568
GACGGTCTCCTTCCCCTGACGTGCTAG,0.153
TTAGAACTGGGCACTGGATTAGTGCTA,-0.641
TCAAGTTTCTTTTCTTTACTGTGCTAG,6.62

# Sample 5
# Target: RING finger protein unkempt homolog, zinc fingers 1-6, GST-SBP tag (UNK, Homo sapiens, UniProt Q9C0B0, residues 30-357)
# Sequence of UniProt Q9C0B0 (30-357, looked up): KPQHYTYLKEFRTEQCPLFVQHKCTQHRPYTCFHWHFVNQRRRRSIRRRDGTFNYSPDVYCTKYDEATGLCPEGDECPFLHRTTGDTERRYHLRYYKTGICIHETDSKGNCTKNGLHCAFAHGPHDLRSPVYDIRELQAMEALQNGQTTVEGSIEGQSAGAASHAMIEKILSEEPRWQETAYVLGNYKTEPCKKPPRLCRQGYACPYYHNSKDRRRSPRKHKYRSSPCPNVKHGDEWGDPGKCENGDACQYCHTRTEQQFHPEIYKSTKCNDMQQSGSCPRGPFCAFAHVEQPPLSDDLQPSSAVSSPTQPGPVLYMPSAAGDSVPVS
# Method: RNA Bind-n-Seq
# Molecule type: RNA
# Sample: in vitro
# Concentration: not given
# Notes: RNA with constant flanks, human and mouse sites, ends assumed
# Reference: input RNA pool
# Direction: higher = stronger binding
# Constant ends, left off below: GGGAGUUCUACAGUCCGACGAUC … CAACAGAGGAUUGAGCAUCA
Oligonucleotide,bound/input enrichment
GUGUAGGGGUGGUCAGAAUUGUUUCCCAUUCCAUAAUGCCUGAUGUUAUUUUCAAGUUUUAUAUUAUCUUAAGGUGUAUAUGUUUGUUUUCGUUUUAUAUAUAUUAUAUAUAAAUAGAUC,0.693 ratio
AGAUUAGGCCAUGAUCCCUACAGACUAACUCCUGAUCCCUAUAGGAUGUCACCUAGACCCUACAGGAUAGCACCCAGGUCCUAUAGAAUAGCACCCAGGCCAUAUAGGUUAGCACCUAGA,5.99 ratio
GAAUGGUACCUUCUAGCGACUGGCCUAUUUUUAUUGAGAAAAAAACUUGUUCUAUUUUUGUUGUUGUUACUGUUCUUAUGGAUUGCAUUCAUAUUUAAACCCUUUGGAUUGCUAACCAGA,0.286 ratio
GGCCUGGAGUUCGGCAAGUUGCCAUUUGGUGCCUGUGAAGAUCCUAUCAGUGAACUCCAUUUAGCAACAACGUGGCCUCAUUUGACAGAAGGGAUCAUUGUAGAUAAUGAUGUUUAUUCU,1.37 ratio
UAGCAAGUUGUCUACUGUUUGAUCAUAAUCCUUGGCGAAAUUGCAUUUUGACCAAAGUUGAAGGACUGUUUCUACUUGUGGACCAAUCCUGUCCUGUUUUCUAGUAACGUAUAGGACAAU,0.151 ratio
GAUGCAGUUCUUAUUGAUUACCAGAGAAAUGUACCAGCUGCUAGAGAACCAGAAGUGCUUAGUACUAUGGCCAUUAUUGUCAACAAAUUAGGUGGACAUAUAACAGCUGAAAUACCUCAA,0.329 ratio
UUUGGCUUGCUUUGUUUGGUGGCAAGUUGCUUACCUACUAAGCUAUAUCACUAGCCAAAAAAUAGCAGGGUUUGUGUAUUUGUUUGCUUUUAUGUAUCUGGGGGUUUUGUUUACAUGUAU,0.599 ratio
GCCGGCCUCCCCUGUUCCUUGUGUGAGUGAUGUCGUGAAUACACCGUUGUCCAUAAACAUUCCACAGUUCUAUUUCCCUGAAGGACUCCCAGACACCUGCAGUAACCAUGAACAGAUCCU,0.71 ratio
UAUUUAAUAUCACCUCUAGAUUUUGUACCUGAAGCCUUGUUUGGAAUUCUGGGCUUUCUAGAUGAUUUCUUUGUUAUCUUUUUGUUGCUUAUUUACAUCUCCAUUAUGUAUCGAGAAGUG,0.739 ratio
UCGCUGGACCGAAACCGGAGAGUGAGGGGUGGGAAAAGCCAGAAGCGGAAGCGGCUGAAGAAGGACCCUGGGAAGAAGAUCAAGAGAAAGAAGAAAGGAGAGUUCCCAGGAGAAAAAAGC,0.58 ratio
AGACAUUUAUUCUUUCUUGGACCUCAGAUUUACCAGACAUCUCAUGGGUUUGUGGAUGCACUUAGAUGUUUGCAAUGAGCACUGUGGCUGGCAUGCCCCAGUGUUUUGGAUACCAAUGCA,0.326 ratio
